Results from different studies.
Parts stem from different laboratories: compare values within a part only.

Block 1
Target: Ras GTPase-activating protein-binding protein 1, full length (G3BP1, Homo sapiens, UniProt Q13283)
Chain of UniProt Q13283 (whole entry, looked up): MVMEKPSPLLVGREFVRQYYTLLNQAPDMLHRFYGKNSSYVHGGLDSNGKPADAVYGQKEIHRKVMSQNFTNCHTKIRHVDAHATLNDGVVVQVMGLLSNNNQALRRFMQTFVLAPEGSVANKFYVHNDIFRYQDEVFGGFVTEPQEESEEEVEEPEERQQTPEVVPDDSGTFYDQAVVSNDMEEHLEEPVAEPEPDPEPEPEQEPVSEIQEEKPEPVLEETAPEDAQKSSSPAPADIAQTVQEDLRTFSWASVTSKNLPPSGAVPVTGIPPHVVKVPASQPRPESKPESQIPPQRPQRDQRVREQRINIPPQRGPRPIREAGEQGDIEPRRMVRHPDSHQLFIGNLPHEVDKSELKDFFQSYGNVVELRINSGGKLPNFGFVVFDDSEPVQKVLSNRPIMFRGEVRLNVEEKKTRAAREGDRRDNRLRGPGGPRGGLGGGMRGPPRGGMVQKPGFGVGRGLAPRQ
Method: RNA Bind-n-Seq
Form: RNA
Sample: in vitro
Tested at: 200 nM
Notes: whole 134-nt RNA, ends assumed
With: 150 mM LiCl
Relative to: input library
Reading: higher = stronger binding
Endpoint: log2 enrichment
Each molecule: 7-deaza-guanosine replaces G
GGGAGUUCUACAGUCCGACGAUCAGUCCUGUGCUACACAUCGUAUGUACCGAAUCGGGUUUGGGUUUUUUUGGGAAAGGGAAAGUAUUAUGUUACGCCGUUCGGAUCUGCACUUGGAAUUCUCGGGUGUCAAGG: -0.321
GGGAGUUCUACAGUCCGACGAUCCUCAAGUCCUGUGCUACACAUCGUAUGUACCGAAUCGGUUUUUGGUGGAAAGGAAAGUAUUAUGUUACGCCGUUCGGAUCUGCACUUCCAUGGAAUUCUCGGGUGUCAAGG: 0.157
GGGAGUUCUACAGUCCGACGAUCCCUCAAGUCCUGUGCUACACAUCGUAUGUACCGAAUCGGGAGGGAGGAGGGGAAAGUAUUAUGUUACGCCGUUCGGAUCUGCACUUCCAGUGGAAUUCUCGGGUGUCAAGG: -0.099
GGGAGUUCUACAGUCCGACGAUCAAGUCCUGUGCUACACAUCGUAUGUACCGAAUCGGGGAAAGGGGAAAGGGGAAAGGGAAAGUAUUAUGUUACGCCGUUCGGAUCUGCACUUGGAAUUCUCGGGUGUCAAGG: 0.821
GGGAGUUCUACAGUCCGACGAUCGUCCUGUGCUACACAUCGUAUGUACCGAAUCGGAAAAAAGGAAAAAAGGGAAAAAAGGGAAAGUAUUAUGUUACGCCGUUCGGAUCUGCAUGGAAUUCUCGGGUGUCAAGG: -0.635
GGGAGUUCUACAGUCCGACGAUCUGGCCCUGGUGGCAUGCGGGGAGGAAGAGGUGGCCUCAUGGAUCGUGGUGGUCCCGGUGGAAUGUUCAGCGGUGGCCGUGGUGGAGACAGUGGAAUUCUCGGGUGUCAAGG: -0.205
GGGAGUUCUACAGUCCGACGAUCCCUGUGCUACACAUCGUAUGUACCGAAUCGGGAAAAAGGGUUUUUUUGGGUUUUUUUGGGAAAGUAUUAUGUUACGCCGUUCGGAUCUGCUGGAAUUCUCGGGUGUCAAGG: -2.09
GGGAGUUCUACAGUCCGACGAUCACCAUGCAGGUGGGCAUCUUUGGGAAGUGGGGCAAGGGGGGGAUAGGGAGGGGAGUAACACUUUGGGAACAGGUGGUCCCAGGUCGUUUCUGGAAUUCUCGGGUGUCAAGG: 0.111
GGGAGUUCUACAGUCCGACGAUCGUCCUGUGCUACACAUCGUAUGUACCGAAUCGGGAAAAAAGGGAAAAAAGGAAAAAAGGAAAGUAUUAUGUUACGCCGUUCGGAUCUGCAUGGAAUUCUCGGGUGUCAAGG: -0.436
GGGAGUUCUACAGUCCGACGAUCAAGUCCUGUGCUACACAUCGUAUGUACCGAAUCGGGGCCCCGGGCCCCGGCCCCGGGAAAGUAUUAUGUUACGCCGUUCGGAUCUGCACUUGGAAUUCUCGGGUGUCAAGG: -1.92
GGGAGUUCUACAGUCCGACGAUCUCAAGUCCUGUGCUACACAUCGUAUGUACCGAAUCGGGGUUUGGUUUGGUUUGGAAAGUAUUAUGUUACGCCGUUCGGAUCUGCACUUCCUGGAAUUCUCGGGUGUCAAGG: -0.0558

Block 2
Target: RNA binding protein fox-1 homolog 2, RRM domain, GST-SBP tag (RBFOX2, Homo sapiens, UniProt O43251-10, residues 100-194)
Method: RNA Bind-n-Seq
Form: RNA
Sample: in vitro
Tested at: 365 nM
Notes: natural RNA segment, single round, ends assumed
Relative to: no-protein control
Reading: higher = stronger binding
Endpoint: RBNS enrichment (R)
Residues (chain): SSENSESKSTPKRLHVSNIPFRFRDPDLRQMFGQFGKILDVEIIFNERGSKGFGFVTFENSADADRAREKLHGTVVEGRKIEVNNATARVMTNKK
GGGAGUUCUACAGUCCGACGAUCGUUUGGGGCUAAGAAGUUCACCAGCCCUGAGCCAUGGCGGCCCCUCAGCCUGCCUGAAGAGAGGAAACUGGCGAUCUCCCAGGGCUCUCUGGACCAUACGCGGAGGAGUUUGGAAUUCUCGGGUGCCAA: 0.364
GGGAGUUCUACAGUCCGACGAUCGCAAGUAGUUUCAACAUACUCCAGGAACUGAGAAACAAAACAAAGCAAUUGUGGGUUUUGAGCUCCAUAUACUCUUAGCAAGUAAGGGGGCGUCUUGCCCCUAUAUAUCAUGGAAUUCUCGGGUGCCAA: 0.574
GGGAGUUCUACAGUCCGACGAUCUCUAUGAGCAGCUGCUGUAACAUACUCAUCAACUAUGAUAGACUUAACACUUGUUACCUAAUGAACAAGGAGGAUGUGCAUUUCGGGUUUCUUUUGAUAUUCGUGGAGGUUGGAAUUCUCGGGUGCCAA: 0.488
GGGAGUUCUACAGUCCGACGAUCCCCCCUCUCAGCAGCCCACCGGGUCCCUCCAGGCUGCUGCCCGUGCGUGGUCUUUCUCCUCCUUUUCAAAGCAAUAGCCGCCGGGUCUGCAAAGCCCUGUCAGACAGACUUGGAAUUCUCGGGUGCCAA: 0.279
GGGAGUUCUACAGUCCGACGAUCUGCUUUUUUUCUCUAUUAUGGCAAAUAUUGAAUAUUCAUGAACAUAACUUGCUAAACAAGUAUUCCAAAAAUUUGAUCUAGUCAAUCCAUUGUGUGAAUCUCAAAUAUCUUGGAAUUCUCGGGUGCCAA: 0.426
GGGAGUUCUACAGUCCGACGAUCGGGUCGCACAGUAGGCAAGAGUCAGGGACACCCUCCAUUCCCACUGUUAGGAUUCCCACACGAACACCAAGCUACUCAGCCAUAACAUAUGCAGAGGACUUGCUCAGACUUGGAAUUCUCGGGUGCCAA: 0.291
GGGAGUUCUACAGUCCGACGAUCUACAUUUGGGGAAAGCCUUGGGUGUAAAUCAGUGUAAACUUGGAGGAGAGAUUUUUCUAUCAUGUAGAGUAGGUAUUUUUUAUAGAUUGAAGGUUGAUCAAUUUUUUAAUUGGAAUUCUCGGGUGCCAA: 0.762
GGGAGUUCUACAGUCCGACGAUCGUUACUCUUUGUUCAGUAAUGCACUUUAUUUUAUUGUCCAAAGAGAGUCAAGCUAAAGCUACCACCUUGGGGUGAGCCCUACAGAAGGUUCAGACCCGGGCAGCUCAGCUUGGAAUUCUCGGGUGCCAA: 1.2
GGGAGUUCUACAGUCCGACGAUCAGGGAGGUCUGUGCAUUUUAAACACAAAUGUGAAGAACUUGUAUAUAAACAAAAGUAAAUACUAUAAUACAAACUUCCUUCUGAAAUAAAAGUAGAUCUGGUAAAAAUGUUGGAAUUCUCGGGUGCCAA: 0.749

Block 3
Target: Histone acetyltransferase KAT6A, both winged helices, GST fusion (KAT6A, Homo sapiens, UniProt Q92794, residues 1-181)
Method: protein binding microarray
Form: double-stranded DNA, one strand shown
Sample: in vitro
Tested at: not given
Notes: 8-mer, flanks averaged, mean of 2 arrays, mostly near background
Relative to: not given
Reading: higher = stronger binding
Endpoint: E-score
Construct (chain): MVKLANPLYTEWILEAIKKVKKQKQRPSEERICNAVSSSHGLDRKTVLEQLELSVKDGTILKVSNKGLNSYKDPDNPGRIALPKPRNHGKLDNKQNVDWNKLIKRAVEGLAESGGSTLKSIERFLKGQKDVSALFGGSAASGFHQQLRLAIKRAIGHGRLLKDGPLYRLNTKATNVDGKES
CACCCATG: 0.0142
ACATGTCT: 0.0374
CCTATAAA: -0.105
ACCTGCGC: 0.14
AACGTAGA: -0.0118
CTTACCGC: 0.199
CGCGTGTA: 0.221
CTGCGCCC: 0.0731
CTATCTGC: -0.0447
AACAGCGG: 0.121
CAGCTATA: -0.168
ATCGTCAC: -0.112
ATAGGCCA: -0.0369
AGAACAGA: -0.174
TATGCTGA: -0.066
GTAGACTA: -0.0728
CCCTACCC: -0.104
AGGCCTCA: -0.0766
CGTCCAGC: 0.0503
CGGCTTAG: 0.21
CAGTACTC: -0.207
AGATAGGG: -0.275
CAAGTACG: 0.00301

Block 4
Target: RING finger protein unkempt homolog, zinc fingers 1-6, GST-SBP tag (UNK, Homo sapiens, UniProt Q9C0B0, residues 30-357)
Chain of UniProt Q9C0B0 (30-357, looked up): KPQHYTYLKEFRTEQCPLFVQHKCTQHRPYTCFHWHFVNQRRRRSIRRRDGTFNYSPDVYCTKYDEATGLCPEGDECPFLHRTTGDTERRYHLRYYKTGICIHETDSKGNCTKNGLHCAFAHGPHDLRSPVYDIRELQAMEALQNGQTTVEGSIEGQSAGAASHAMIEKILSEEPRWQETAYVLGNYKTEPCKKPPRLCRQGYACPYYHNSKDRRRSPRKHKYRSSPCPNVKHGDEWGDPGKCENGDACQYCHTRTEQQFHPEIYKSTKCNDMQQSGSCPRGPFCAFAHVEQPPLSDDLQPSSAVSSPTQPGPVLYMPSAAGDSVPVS
Method: RNA Bind-n-Seq
Form: RNA
Sample: in vitro
Tested at: not given
Notes: RNA with constant flanks, human and mouse sites, ends assumed
Relative to: input RNA pool
Reading: higher = stronger binding
Endpoint: bound/input enrichment
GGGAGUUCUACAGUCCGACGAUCACUCUGUGGUUAGUAAGAGGCCUUUGCUCAGGUCCCAUUCUGUUCCUCUUCCCUGCUGAGUAUAGGUAGCUGGAUCCUGCGGUCCACUUUGCUUACUAUCUAACUGCCUUUGAUUGAUUGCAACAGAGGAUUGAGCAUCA: 0.125 ratio
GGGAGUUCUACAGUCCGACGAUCUACAGCAACAUUUCUCCAGUCCAGAUCCACUGGUACAACACUUCAAACCCUCUACCUUAUGAGCAUAUGAAGCCAAAUUUUCUCAACCCAGCAAAAGAACCUACCUCAGUUUCAGACAGUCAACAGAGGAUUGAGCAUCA: 0.279 ratio
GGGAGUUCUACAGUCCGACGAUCUCAGCGUUUGACAAUCCAACUUACGAGACUGGAGAGACGAGAGAAUAUGAAGUCUCCAUCUAGGUGGGGGCAGUCUAGGGAAGUCAACUCAGACUUGCACCACAGUCCAGCAGCAAGGCUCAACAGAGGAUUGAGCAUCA: 0.17 ratio
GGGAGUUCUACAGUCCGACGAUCAAGUUUUCGUAUCACAGUGUUAACCUGUACUCUCUCCUGCAAACCUACACACCAAAGCUUUAUUUAUAUCAUUCCAGUAUCAAUGCUACACAGUGUUGUCCCGAGCGCCGGGAGGCGUUGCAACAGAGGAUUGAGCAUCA: 0.361 ratio
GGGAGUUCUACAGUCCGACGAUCGGGAUGUCGCUGCUGGUUCGGGCAGAGUCCGACGGAUCACUACUCUUGGAAUCAAAGAUAAAUCCAAAUACUGCAUAUCAGAAACAACAGGAUACAUUAAUUGUUUGGUCAGAAGCAGAGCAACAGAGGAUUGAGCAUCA: 0.16 ratio
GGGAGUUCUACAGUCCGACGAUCACAGACUUACUAAGAUUAUUUGAAUAUGGAGGUUUUCCACCAGAAGCCAACUAUCUUUUCUUAGGAGAUUAUGUGGACAGAGGAAAGCAGUCUUUGGAAACCAUCUGUUUGCUAUUGGCUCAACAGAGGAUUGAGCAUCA: 0.667 ratio
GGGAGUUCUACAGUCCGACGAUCCAACAGGACAUUGAGCAAGUUUGGGAGGAGCUAUUAUCCAUUCCUGAGUUACAGUGUCUUAAUAUUGAAAAUGACAAGCUGGUUGAGACUACCAUGGUUCCAAGUCCAGAAGCCAAACUGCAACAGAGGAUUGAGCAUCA: 0.2 ratio
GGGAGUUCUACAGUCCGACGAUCUUAUUAGAAUCUAUACCUACACAUUCUGAUCAGGAAAAAGAAGUUAACAUUAAAAAACCAGAAGACAAUGAAAAUCUGGAUGACAAAGAUGAUGACACAACUAGGGUAGAUGAAUCCCUCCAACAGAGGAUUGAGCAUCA: 0.443 ratio
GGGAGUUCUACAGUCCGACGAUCAAAGGAGAGAAGAAGGAGAAAAAACAGCAAUCAAUAGCUGGAAGUGCCGACUCUAAGCCAAUAGAUGUUUCCCGUCUGGAUCUUCGAAUUGGUUGCAUCAUAACUGCUAGAAAACACCCUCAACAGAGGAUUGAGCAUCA: 0.254 ratio
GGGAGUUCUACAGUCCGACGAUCGUUCGAGCUAAAUUCAAAUUCUCUCUUCUCAAUGAUAAAAGGGAAGAAACAAAAGCAAUGGAAAGCCAAAGAGCAUAUCGAUUUGUACAGGGGAAGGACUGGGGAUUUAAAAAAUUCAUUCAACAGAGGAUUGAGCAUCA: 0.34 ratio
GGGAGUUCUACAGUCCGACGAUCGUGACAGACUCCAGCCGCUACUUUGUGAUCAGGAUCCAGGAUGGAACCGGGCGCAGCGCGUUUAUUGGCAUCGGCUUCACGGAUCGGGGAGAUGCCUUCGACUUUAAUGUUUCCCUGCAACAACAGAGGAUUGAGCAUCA: 0.203 ratio

Some of these lines once more (block 3):
AACGTAGA: -0.0118
CTTACCGC: 0.199
CGCGTGTA: 0.221
CTGCGCCC: 0.0731
CTATCTGC: -0.0447
AACAGCGG: 0.121
CAGCTATA: -0.168
